Experimental data from different studies.
Parts stem from different laboratories: compare values within a part only. Changes are numbered by the printed parent chain.

Set 1
Target: CCND2, cyclin fold, Cln2 fusion (human)
Method: yeast growth competition, sequencing
Medium: yeast
Notes: weak parent motif
Reference: not given
Direction: higher = stronger binding
Parent: FOXM1 docking peptide (human); PHLARPIKVESPP
`L3A`: “normalised enrichment score” 0.248.
For `P6A`, “normalised enrichment score” read -0.225.
`V9A` — result for “normalised enrichment score”: 0.192.
For `I7A`, “normalised enrichment score” read -0.1.
For `K8A`, “normalised enrichment score” read -0.231.
`R5A` — result for “normalised enrichment score”: -0.228.

Set 2
Target: RNA binding protein fox-1 homolog 2, RRM domain, GST-SBP tag (RBFOX2, Homo sapiens, UniProt O43251-10, residues 100-194)
Method: RNA Bind-n-Seq
Form: RNA
Medium: in vitro
Tested at: 365 nM
Notes: natural RNA segment, single round, ends assumed
Reference: no-protein control
Direction: higher = stronger binding
Shared flanks, not repeated: GGGAGUUCUACAGUCCGACGAUC … UGGAAUUCUCGGGUGCCAA
Target sequence (chain): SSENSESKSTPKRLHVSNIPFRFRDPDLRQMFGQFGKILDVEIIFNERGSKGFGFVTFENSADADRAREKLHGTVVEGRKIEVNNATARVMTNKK
`AGCUGCCAUUUCUGAGUCCUUGAGAGGCUGAGAAGGCUCUAGCUUUGUACUGUAUUCUUACUGUGUGACUAGAUGCGUGAGCGCUUUACAUUAGAAGGAACCUGGUUAGA`: “RBNS enrichment (R)” 0.413.
Under “RBNS enrichment (R)”, `UCCUCUGCUGAGUUGUGGGAGGCAGACCUCAGUUUGCUUGUUUUUUGUGAAAGCUAACUUUAUGAUUUCAAGCACACUUUCUACAUGAGAAACCCCUAAUGUGUGUCCAU` is recorded as 0.525.
`UGUGUAACCAUUUGAUAUCUGAGCAAUAGUGUCUCAGUUUAAUAAAAGCUUCCUAUAGUACAUUGGUAUGGAUUAAAUACAUAAAAUAUUCUAUUAGACUUCAUGCUGUA` — result for “RBNS enrichment (R)”: 0.557.
Under “RBNS enrichment (R)”, `AUCCGCCUCCUCUGCAGCAGCCAGUGUGCUGCUCGAGGGUGUUGGGGGGUCCACCCGCCUCCAUCUGGAUACUACAACCUCCCUCCUUCCUAAGUUUUGAGGUGGGGUGA` is recorded as 0.251.
`AAGGAAGUAUCGAAUUUACAUUAGUUUUUUUCAUACCCUUUUGAACUUUGCAACUUCCGUAAUUAGGAACCUGUUUCUUACAGCUUUUCUAUGCUAAACUUUGUUCUGUU` — result for “RBNS enrichment (R)”: 0.402.
For `UUUUGACCAAGGUGAGACUUUUGGCAUAAAUUAAAUGGAUUGUGGUCAGCAUUACAUUUGAGAGAAUACUAGACAUGACUACACUUAUUAGGGCUAGUGACUUUCUCAAA`, “RBNS enrichment (R)” read 0.519.
Under “RBNS enrichment (R)”, `AGCGCCUUGAGUCAAGGCCACUUUUCAGCCCAUCGAGCCCUGAGUUCUACUUGGUGUUUGUUCUCUGGAGCUGAUUGCACUUGAGCUCUGUGGUGGGCAGGCGCACUUUA` is recorded as 0.897.
Under “RBNS enrichment (R)”, `GUAGCUGAGGAGGAGGGGAAGCCCCUUCAAAGUGUCGAUGUGGCCUUAUAAGUGUCAUACGUCACCCUACAGCAAACACGUGACAACCAUCCUGGGCUCUCAUCUGAACC` is recorded as 0.235.
`CACAAUAGGAAACACCACUUCCACAAGUCUCAAGCCUCAGUGCUAAAGUACUACUGAAAAGGAACUAGGAAGUUUGGCCAAUUAAAAAAAAAAAGUAAAAUAAGUUAUAG`: “RBNS enrichment (R)” 0.543.
Under “RBNS enrichment (R)”, `UCUCCCAACGUUUGCCUCCCAAUGUUGUCCCUUUCCUUCGUUCCCAUGGUAAAGCUCCUCUCGCUUUCCUCCUGAGGCUACACCCAUGCGUCUCUAGGAACUGGUCACAA` is recorded as 0.548.
`GGUUGUAUUCAGUAAAAAAGAAUAGUAAAUAUAAGGUCACUGAGAUUCUAAGUAAGAUAGUAAAUCUAAGGUCACUGAGCCAAAUCCUUUUCAAUAGGCAUAUAUUAACA` — result for “RBNS enrichment (R)”: 0.424.
`CACAAAUGUUAUUUAAAAGCAUCUUCUCACCUACAUAGAAGUAAACAAAACACACAAUUUGGGAUUUUGACUCUUCAGUUUUGACCUCACUUCUCCUGGAUCCAACCUGA` — result for “RBNS enrichment (R)”: 0.893.

Set 3
Target: CEP164, C-terminal peptide (human)
Method: DHFR complementation, deep sequencing
Medium: yeast
Notes: single substitutions, model-inferred values
Reference: wild type
Direction: higher = weaker binding
Parent: PDZK1, PDZ domain 2 (human); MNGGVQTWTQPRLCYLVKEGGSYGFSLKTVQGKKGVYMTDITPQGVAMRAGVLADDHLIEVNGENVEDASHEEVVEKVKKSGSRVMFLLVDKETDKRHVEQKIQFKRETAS; partner HNRVKVYRF
`G45Y` — result for “binding free energy change”: 1.51 kcal/mol.
For `T94M`, “binding free energy change” read -0.0305 kcal/mol.
`C14N`: “binding free energy change” 1.32 kcal/mol.
Under “binding free energy change”, `A69H` is recorded as -0.188 kcal/mol.
`V30G` — result for “binding free energy change”: 0.687 kcal/mol.
`K79L`: “binding free energy change” -0.383 kcal/mol.
For `S111N`, “binding free energy change” read -0.0398 kcal/mol.
`A47R` — result for “binding free energy change”: 0.657 kcal/mol.
`F87N`: “binding free energy change” 1.8 kcal/mol.
`V30P` — result for “binding free energy change”: 1.07 kcal/mol.
`Q31I` — result for “binding free energy change”: -0.349 kcal/mol.
For `G45K`, “binding free energy change” read 1.01 kcal/mol.

Further values, each from its own experiment
`PhoQ, residues 284 288 289 292 302 303 SIHMAM` gave a fold induction of 14.5 (PhoP, residues 12 14 15 18 19 LQHIR (Escherichia coli, UniProt P23836); Sort-seq, item: YFP reporter; E. coli; PhoQ-PhoP variant library, together with: 10 µM Mg2+; reference: high Mg2+ state, higher = stronger signaling).

Excerpt of the above (set 1):
`L3A`: “normalised enrichment score” 0.248.
For `P6A`, “normalised enrichment score” read -0.225.
`V9A` — result for “normalised enrichment score”: 0.192.
For `I7A`, “normalised enrichment score” read -0.1.
